Experimental data collected from several papers.
MTOR: Serine/threonine-protein kinase mTOR (MTOR, Homo sapiens, UniProt P42345)
MTOR with FKBP12: Serine/threonine-protein kinase mTOR, with FKBP12 (MTOR, Homo sapiens, UniProt P42345)

SMILES | target | test | test system | setting | how to read | quantity | value
C=CC(=O)Nc1cc(-c2nn(C3CCN(CCNC(=O)[C@H](C)CCC45CC6CC(CC(C6)C4)C5)CC3)c3ncnc(N)c23)ccc1Oc1ccccc1 | MTOR | inhibitor |  | 2 µM |  | inhibition | 5.1%
Cc1ccc(-c2c(/C=C(\C#N)C(=O)NC(C)C)n(CCCO)c3ncnc(N)c23)cc1 | MTOR | cell-free assay, competition with immobilised ligand |  | 1 µM |  | remaining binding | 92%
O=C=[N][Ru-4]123([n]4c5ccc(O)cc5c5c6c(c7cc(F)c[n+]1c7c54)C(=O)NC6=O)[S+]1CC[S+]2CC[S+]3CC1 (stereo not drawn) | MTOR with FKBP12 | enzyme activity |  | 100 nM, human enzyme, with: 10 µM ATP | baseline: untreated | remaining activity | 108%
Cc1cnc2nc1Nc1cccc(c1)COC/C=C/COCc1cc(ccc1OCCN1CCOCC1)N2 | MTOR | binding |  | 0.1 µM |  | remaining binding | 72%
CNC(=O)C[C@H](Cc1ccc(C#N)cc1)NC(=O)c1cc(-c2ccc(CN[C@H](C)c3ccc(C)cc3)o2)ccc1Cl | MTOR with FKBP12 | enzyme activity, KinaseProfiler panel |  | 1 µM |  | remaining activity | 109%
COc1c(Cl)cccc1Nc1c(-c2ccncc2C#C[C@@]2(C)CCCN2C(=O)/C=C/CN(C)C)[nH]c2c1C(=O)NCC2 | MTOR | cell-free assay, competition with immobilised ligand |  | 3 µM |  | remaining binding | 100%
CC(=O)N1c2ccc(-c3ccc(CNC(=O)c4cn5cc(-c6cnc(N)nc6)nc(N6CCOCC6)c5n4)cc3)cc2CC[C@@H]1C | MTOR | enzyme activity, inhibitor, radiometric |  | 0.1 µM |  | remaining activity | 108%
Cc1nc2c(F)cc(-c3nc(Nc4ccc(CNC(=O)CCCCCCC(=O)NO)cc4)ncc3F)cc2n1C(C)C | MTOR | enzyme activity, inhibitor |  | 1 µM |  | inhibition | 59%
CN1CCN(Cc2ccc(-c3ccc(CO[C@H]4CCC[C@@H]4NC(=O)c4cc(-c5cnn(C)c5)cnc4N)cc3)cc2)CC1 | MTOR | enzyme activity, inhibitor |  | 0.1 µM |  | inhibition | -3%
CS(=O)(=O)Nc1cccc(-c2csc3cnc(Nc4ccc(N5CCN(CCCCCOc6cccc7c6C(=O)N(C6CCC(=O)NC6=O)C7=O)CC5)cc4)nc23)c1 (stereo not drawn) | MTOR | kinase activity, cell-based | MOLT-4 | 1 µM |  | inhibition | -17.7%
CC(C)=CC1OC(C)(C)C2C=C3C(=O)C(Cl)=CC(O)C3C3C(O)C4OC4C(=O)C132 (stereo not drawn) | MTOR | cell-free assay, competition with immobilised ligand |  | 10 µM |  | remaining binding | 75%
CN1CC[C@@H](COc2cnc(C#N)cc2-c2ccn3nc(NC(=O)C4CC4)cc3c2)C1 | MTOR | enzyme activity, inhibitor |  | 1 µM |  | inhibition | 4%
O=C(Cc1ccc(OCc2ccccc2)cc1)NC1(C(=O)O)CCN(C(=O)c2ccc(-c3cccc(Cl)c3)cc2)CC1 | MTOR with FKBP12 | kinase activity, inhibitor |  | 10 µM, with: ATP at Km |  | remaining activity | 100%
COc1ccc(C(=O)/C=C/c2ccccc2-c2c[nH]c3ccc(C#N)cc23)c(O)c1 | MTOR | enzyme activity, inhibitor |  | 20 µM |  | inhibition | -9%
Cc1cccc(O[C@H]2CCC[C@@H](C(C)CNCc3ccncc3)C2)c1 (relative stereo) | MTOR | enzyme activity, inhibitor |  | 10 µM |  | inhibition | -5%

Some of these lines once more:
SMILES | target | test | test system | setting | how to read | quantity | value
CC(=O)N1c2ccc(-c3ccc(CNC(=O)c4cn5cc(-c6cnc(N)nc6)nc(N6CCOCC6)c5n4)cc3)cc2CC[C@@H]1C | MTOR | enzyme activity, inhibitor, radiometric |  | 0.1 µM |  | remaining activity | 108%
Cc1nc2c(F)cc(-c3nc(Nc4ccc(CNC(=O)CCCCCCC(=O)NO)cc4)ncc3F)cc2n1C(C)C | MTOR | enzyme activity, inhibitor |  | 1 µM |  | inhibition | 59%
